Published values from different studies.
Every numbered part comes from another study and shows a few of its results, in no order.
Chain of UniProt P42336 (whole entry, unmodified, looked up): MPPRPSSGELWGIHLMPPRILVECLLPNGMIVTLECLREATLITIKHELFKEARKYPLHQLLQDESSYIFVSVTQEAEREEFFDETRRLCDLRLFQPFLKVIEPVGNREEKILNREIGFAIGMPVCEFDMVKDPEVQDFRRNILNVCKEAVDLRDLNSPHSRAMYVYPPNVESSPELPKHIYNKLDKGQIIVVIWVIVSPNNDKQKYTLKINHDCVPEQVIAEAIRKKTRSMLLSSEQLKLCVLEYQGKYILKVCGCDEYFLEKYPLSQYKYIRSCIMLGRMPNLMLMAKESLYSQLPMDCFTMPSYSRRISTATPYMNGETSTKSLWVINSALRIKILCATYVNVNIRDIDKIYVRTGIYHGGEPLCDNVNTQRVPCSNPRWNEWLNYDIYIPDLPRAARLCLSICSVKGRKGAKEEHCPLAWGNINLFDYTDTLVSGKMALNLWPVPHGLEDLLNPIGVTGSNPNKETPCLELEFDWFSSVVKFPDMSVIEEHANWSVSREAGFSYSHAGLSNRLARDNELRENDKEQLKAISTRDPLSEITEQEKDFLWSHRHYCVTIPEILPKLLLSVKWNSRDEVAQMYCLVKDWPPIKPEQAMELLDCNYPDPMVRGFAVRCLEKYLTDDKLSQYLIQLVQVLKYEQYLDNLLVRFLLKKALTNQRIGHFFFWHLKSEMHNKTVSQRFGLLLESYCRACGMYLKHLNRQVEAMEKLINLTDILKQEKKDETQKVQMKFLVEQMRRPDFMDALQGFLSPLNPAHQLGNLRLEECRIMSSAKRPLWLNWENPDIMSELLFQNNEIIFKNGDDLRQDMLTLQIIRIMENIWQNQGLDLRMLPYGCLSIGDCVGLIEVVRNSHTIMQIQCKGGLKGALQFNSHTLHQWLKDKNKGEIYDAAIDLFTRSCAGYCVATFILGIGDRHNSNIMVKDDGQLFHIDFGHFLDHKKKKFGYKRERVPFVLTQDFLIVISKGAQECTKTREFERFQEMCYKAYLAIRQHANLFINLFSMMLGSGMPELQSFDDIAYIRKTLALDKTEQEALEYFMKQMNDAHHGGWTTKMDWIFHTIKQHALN
Chain of UniProt Q6P3R8 (whole entry, looked up): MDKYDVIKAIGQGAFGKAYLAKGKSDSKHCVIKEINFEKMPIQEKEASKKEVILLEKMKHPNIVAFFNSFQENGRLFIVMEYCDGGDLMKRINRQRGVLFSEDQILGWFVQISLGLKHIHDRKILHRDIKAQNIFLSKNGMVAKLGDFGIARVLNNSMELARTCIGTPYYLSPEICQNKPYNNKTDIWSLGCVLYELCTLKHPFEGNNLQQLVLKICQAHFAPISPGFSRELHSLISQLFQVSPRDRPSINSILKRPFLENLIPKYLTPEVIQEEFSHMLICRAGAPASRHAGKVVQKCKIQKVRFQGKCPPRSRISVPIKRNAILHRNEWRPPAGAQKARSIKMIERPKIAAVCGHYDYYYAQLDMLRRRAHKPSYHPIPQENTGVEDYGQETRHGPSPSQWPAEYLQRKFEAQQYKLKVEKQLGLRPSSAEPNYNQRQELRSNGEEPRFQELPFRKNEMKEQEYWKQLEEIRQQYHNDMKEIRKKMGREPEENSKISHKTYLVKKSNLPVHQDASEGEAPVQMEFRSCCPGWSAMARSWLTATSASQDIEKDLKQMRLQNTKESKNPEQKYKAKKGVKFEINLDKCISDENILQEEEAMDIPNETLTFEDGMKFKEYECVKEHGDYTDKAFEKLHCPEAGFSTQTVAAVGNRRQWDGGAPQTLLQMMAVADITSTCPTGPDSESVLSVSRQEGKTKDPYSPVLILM
Chain of UniProt Q00537 (whole entry, looked up): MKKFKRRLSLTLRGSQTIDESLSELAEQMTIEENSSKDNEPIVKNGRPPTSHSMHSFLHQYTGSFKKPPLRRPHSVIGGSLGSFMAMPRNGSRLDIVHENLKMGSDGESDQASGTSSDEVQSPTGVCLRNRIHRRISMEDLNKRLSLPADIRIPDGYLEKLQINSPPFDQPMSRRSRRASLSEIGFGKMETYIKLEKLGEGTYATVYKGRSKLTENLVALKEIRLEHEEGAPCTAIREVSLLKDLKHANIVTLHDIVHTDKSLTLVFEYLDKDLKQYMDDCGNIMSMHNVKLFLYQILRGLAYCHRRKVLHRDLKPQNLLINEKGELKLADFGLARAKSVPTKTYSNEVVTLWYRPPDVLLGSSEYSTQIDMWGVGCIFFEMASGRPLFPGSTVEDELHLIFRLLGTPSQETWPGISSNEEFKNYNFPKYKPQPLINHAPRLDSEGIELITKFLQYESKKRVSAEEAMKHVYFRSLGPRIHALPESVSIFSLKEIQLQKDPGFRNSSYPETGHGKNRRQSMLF
Chain of UniProt P53671 (whole entry, looked up): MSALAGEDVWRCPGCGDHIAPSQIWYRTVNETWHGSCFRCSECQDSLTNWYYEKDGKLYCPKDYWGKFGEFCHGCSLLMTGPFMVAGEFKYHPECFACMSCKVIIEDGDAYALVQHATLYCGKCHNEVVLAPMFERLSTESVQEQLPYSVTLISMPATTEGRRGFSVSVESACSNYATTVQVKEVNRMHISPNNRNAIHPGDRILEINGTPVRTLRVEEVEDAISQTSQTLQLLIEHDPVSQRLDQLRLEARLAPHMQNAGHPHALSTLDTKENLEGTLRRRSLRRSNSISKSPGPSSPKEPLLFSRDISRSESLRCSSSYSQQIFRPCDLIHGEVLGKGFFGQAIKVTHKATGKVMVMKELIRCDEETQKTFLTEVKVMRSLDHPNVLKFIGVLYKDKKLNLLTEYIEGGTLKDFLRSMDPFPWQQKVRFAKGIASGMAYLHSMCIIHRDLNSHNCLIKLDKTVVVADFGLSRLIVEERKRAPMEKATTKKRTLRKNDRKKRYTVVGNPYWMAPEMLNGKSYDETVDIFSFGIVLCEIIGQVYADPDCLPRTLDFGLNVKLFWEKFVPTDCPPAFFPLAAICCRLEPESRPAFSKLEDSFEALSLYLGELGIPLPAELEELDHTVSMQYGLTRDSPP

Set 1 — technique: RNA Bind-n-Seq; molecule type: RNA; sample: in vitro; concentration: 365 nM; baseline: no-protein control; reading: higher = stronger binding
Target: RNA binding protein fox-1 homolog 2, RRM domain, GST-SBP tag (RBFOX2, Homo sapiens, UniProt O43251-10, residues 100-194)
Notes: natural RNA segment, single round, ends assumed
Constant ends, left off below: GGGAGUUCUACAGUCCGACGAUC … UGGAAUUCUCGGGUGCCAA
Residues (chain): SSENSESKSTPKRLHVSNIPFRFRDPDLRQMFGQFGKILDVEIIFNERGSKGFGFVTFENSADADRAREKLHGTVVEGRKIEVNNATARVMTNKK
For `UGCCCAGCCCUGAGGGCAGGGAAGGUCAACCCACCUGCCCAUCUGUGCUGAGGCAUGUUCCUGCCUACCAUCCUCCUCCCUCCCCGGCUCUCCUCCCAGCAUCACACCAG`, “RBNS enrichment (R)” read 0.693.
For `GAGGAGGGUGAACAAGGUGAUCUCAGAGAUCACUACUGCUCUUGGAGUUCCUUCUCCUAAAGCUAAGGCCAGCCUCCAUCACAAAUGCCCAUAAAAUCUGGCUCGUCUUU`, “RBNS enrichment (R)” read 0.356.
Under “RBNS enrichment (R)”, `AGUUUGGUGGCCCAAGUCCUGAACCCCUCUUAGACCAGGUGAGGUGCAGAGGUGGUUGCUGCUUCCAGUUUCCCUUCAGACUUAGCUGUGUGAACCCCACUCCUAUCCUU` is recorded as 0.508.
`CUCUUACAUGGCCACAAAGGGACACACAGUGACAAAAGGCUCGGAAUGUUACAAUGGUAAAAUGAGUGAUCUCAAAUCCACUGACAGAUAUAAAAUAGGCUUAGAGAGGA`: “RBNS enrichment (R)” 0.895.
`CCGCUGCUCUGGAGGCGGAGCUUAAUGACCUCAUGUGACUUGGACCCGCCCCAUACCAGCCCUUGGCUUGGGUCCUUUUUCUCCAGAAAAACAUAUAUUUUGCAGAGCUC`: “RBNS enrichment (R)” 0.414.
Under “RBNS enrichment (R)”, `UUACCUGAGAGUUGUCUUGUUUUCUGGGCUGUUUUUAACUGAGGAAAAAAAAAAUGCUUUCCUGCCGGGGGGCAGGGGAGACGGAGAAACCCAUGUGCGUUUCCCAUGUG` is recorded as 1.75.
`CUGUCUCCUCAGUGAACCUCCUAGUUUCUUUAUAGACUUAACCUUCCCUUCAGUUAAAGGGUUUCUUUUUCAGAGGGCCUAGACUGUGCUGACCUUGUGUGACCAGAGAU` — result for “RBNS enrichment (R)”: 0.39.
`UUGUUGUCCUUCUUAAUCUCAUUAUACUUCAUCAUGUUGAGUUUCCCAACAUGUGAUGACUAUUCUUGGUUGUCAUCUUGAAUACUACUAGGUGAUUAGGCCUAUUGGUA` — result for “RBNS enrichment (R)”: 0.236.

Set 2 — technique: universal PBM; molecule type: double-stranded DNA, one strand shown; sample: in vitro; concentration: 600 nM; reading: higher = stronger binding
Target: Sal-like protein 4, full length isoform A (SALL4, Homo sapiens, UniProt Q9UJQ4, residues 1-1053)
Chain of UniProt Q9UJQ4 (whole entry, looked up): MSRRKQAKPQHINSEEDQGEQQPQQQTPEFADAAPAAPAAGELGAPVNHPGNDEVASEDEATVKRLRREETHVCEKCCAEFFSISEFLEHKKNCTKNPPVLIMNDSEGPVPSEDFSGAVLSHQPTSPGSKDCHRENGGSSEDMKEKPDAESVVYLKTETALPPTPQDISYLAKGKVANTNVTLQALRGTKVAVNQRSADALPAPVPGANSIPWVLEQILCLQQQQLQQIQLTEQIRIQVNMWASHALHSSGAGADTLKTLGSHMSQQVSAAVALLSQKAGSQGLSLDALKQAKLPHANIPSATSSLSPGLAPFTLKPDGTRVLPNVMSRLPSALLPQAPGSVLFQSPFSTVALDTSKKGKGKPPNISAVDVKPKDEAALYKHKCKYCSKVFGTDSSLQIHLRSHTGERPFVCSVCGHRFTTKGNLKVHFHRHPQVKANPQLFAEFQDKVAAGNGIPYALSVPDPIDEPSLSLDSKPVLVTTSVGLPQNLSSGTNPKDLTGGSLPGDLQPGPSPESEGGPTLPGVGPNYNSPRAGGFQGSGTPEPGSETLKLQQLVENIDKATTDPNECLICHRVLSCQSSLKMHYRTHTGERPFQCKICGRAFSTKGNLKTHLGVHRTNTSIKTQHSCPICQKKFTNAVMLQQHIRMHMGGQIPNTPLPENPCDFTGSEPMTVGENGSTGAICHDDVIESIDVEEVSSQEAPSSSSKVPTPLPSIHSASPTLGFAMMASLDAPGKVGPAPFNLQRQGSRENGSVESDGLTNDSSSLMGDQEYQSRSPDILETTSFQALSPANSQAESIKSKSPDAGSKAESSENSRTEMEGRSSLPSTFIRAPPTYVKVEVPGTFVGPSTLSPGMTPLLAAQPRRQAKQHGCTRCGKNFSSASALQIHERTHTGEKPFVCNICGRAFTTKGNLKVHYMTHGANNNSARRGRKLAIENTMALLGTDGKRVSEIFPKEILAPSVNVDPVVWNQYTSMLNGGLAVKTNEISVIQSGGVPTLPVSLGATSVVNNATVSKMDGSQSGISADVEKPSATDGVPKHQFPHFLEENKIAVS
Notes: 8-mer, flanks averaged, mean of replicates
With `AACTCCTA` the E-score was 0.0375.
`GAAGCGCC` has an E-score of -0.206.
The E-score of `CAAAACAA` is reported as 0.227.
`GAATCCCA` gave an E-score of 0.028.
`AACTTGGT` gave an E-score of 0.166.
`CCTACTAC` has an E-score of -0.112.
The E-score of `TCCATACA` is reported as 0.171.
For `ATGGATGA`, the E-score was 0.208.

Set 3 — observed: enzyme activity; action: inhibitor; concentration: 0.5 µM; baseline: control
Target: Ephrin type-A receptor 8 (EPHA8, Homo sapiens, UniProt P29322)
Chain of UniProt P29322 (whole entry, looked up): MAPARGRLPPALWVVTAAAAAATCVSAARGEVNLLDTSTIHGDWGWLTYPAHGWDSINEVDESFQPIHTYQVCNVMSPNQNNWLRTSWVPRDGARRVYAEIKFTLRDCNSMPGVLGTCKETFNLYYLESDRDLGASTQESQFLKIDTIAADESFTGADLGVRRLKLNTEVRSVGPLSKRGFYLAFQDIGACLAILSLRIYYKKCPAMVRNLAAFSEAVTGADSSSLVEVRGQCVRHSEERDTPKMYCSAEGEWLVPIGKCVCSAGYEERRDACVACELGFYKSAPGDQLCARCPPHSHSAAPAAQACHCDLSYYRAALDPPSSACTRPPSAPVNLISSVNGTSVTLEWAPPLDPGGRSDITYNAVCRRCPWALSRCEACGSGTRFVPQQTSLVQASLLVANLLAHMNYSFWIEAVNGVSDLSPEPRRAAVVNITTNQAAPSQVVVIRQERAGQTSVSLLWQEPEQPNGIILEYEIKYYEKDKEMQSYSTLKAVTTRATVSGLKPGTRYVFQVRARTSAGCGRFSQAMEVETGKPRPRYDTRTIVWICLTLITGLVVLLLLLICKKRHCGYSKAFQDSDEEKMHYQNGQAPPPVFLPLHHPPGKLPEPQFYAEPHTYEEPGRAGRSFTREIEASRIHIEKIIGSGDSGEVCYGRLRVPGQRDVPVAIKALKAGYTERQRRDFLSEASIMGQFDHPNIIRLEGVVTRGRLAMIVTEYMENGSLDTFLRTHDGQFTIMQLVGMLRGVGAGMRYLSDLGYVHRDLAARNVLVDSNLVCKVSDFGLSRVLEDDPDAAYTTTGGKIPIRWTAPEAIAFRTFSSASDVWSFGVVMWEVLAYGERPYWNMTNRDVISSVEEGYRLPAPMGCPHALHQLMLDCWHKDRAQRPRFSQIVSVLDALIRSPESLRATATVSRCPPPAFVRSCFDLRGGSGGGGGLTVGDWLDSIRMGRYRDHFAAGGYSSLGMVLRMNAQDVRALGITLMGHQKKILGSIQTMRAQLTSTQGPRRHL
For `COc1cc2ncnc(Nc3ccc(Oc4ccccc4)cc3)c2cc1OC`, the remaining activity was 97.4%.
With `O=C(Nc1cccc(Nc2cc(Nc3cccc(C(F)(F)F)c3)ncn2)c1)C1CC1` the remaining activity was 103%.
`O=S(=O)(c1cccc2cnccc12)N1CCCNCC1` has a remaining activity of 106%.
For `NCCNc1ncc(C(N)=O)c(Nc2cccc(C(F)(F)F)c2)n1`, the remaining activity was 85.9%.
The remaining activity of `O=C(O)c1ccc2c3c1cccc3c(=O)n1c3ccccc3nc21` is reported as 89.4%.
`Nc1ccc2ncnc(NCCc3ccc(Oc4ccccc4)cc3)c2c1` has a remaining activity of 101%.
`Cc1ccc(NC(=O)c2ccc(CN3CCN(C)CC3)cc2)cc1Nc1nc(-c2cccnc2)cs1` has a remaining activity of 93.1%.
The remaining activity of `Cc1nc(-c2ccccc2)c(-c2ccncc2)o1` is reported as 78.8%.
For `Cc1cccc(-c2[nH]c(C(C)(C)C)nc2-c2ccc3c(c2)OCO3)n1`, the remaining activity was 89.9%.
`O=C(CCCc1ccc(-c2ccccc2F)cc1)Nc1ccc(O)cc1` has a remaining activity of 114%.
For `COc1ccc(OC)c2c(=S)c3ccccc3[nH]c12`, the remaining activity was 93.8%.
With `CNC(=O)c1cc(Oc2ccc(NC(=O)Nc3ccc(Cl)c(C(F)(F)F)c3)cc2)ccn1` the remaining activity was 94.5%.
`Cc1ccc(Nc2nccc(N(C)c3ccc4c(C)n(C)nc4c3)n2)cc1S(N)(=O)=O` has a remaining activity of 90%.
`OCC(O)CCON=C1C(c2c(O)[nH]c3ccccc23)=Nc2ccccc21` (centres unmarked) gave a remaining activity of 91.9%.
With `N#CC(C#N)=C(N)/C(C#N)=C/c1ccc(O)cc1` the remaining activity was 102%.

Set 4 — Compound: CC(C)(O)c1cncc(-c2nc3ccc(F)cc3n2C2CC2)c1; observed: cell-free assay; technique: competition with immobilised ligand; concentration: 1 µM
The remaining binding was 100% (Cyclin-dependent kinase 17 (CDK17, Homo sapiens, UniProt Q00537)).
For Serine/threonine-protein kinase SIK2 (SIK2, Homo sapiens, UniProt Q9H0K1): remaining binding read 100%.
LIM domain kinase 2 (LIMK2, Homo sapiens, UniProt P53671) — remaining binding: 100%.
The remaining binding was 100% (Serine/threonine-protein kinase Nek5 (NEK5, Homo sapiens, UniProt Q6P3R8)).
Non-receptor tyrosine-protein kinase TYK2, JH1 (TYK2, Homo sapiens, UniProt P29597) — remaining binding: 100%.
It gave 100% for remaining binding (SRSF protein kinase 1 (SRPK1, Homo sapiens, UniProt Q96SB4)).
For Ribosomal protein S6 kinase alpha-6, C-terminal kinase domain (RPS6KA6, Homo sapiens, UniProt Q9UK32): remaining binding read 100%.
The remaining binding was 90% (Epidermal growth factor receptor (EGFR, Homo sapiens, UniProt P00533, T790M)).
Epidermal growth factor receptor (EGFR, Homo sapiens, UniProt P00533, L858R) — remaining binding: 100%.
Myotonin-protein kinase (DMPK, Homo sapiens, UniProt Q09013) — remaining binding: 71%.
For Phosphatidylinositol 4,5-bisphosphate 3-kinase catalytic subunit alpha isoform (PIK3CA, Homo sapiens, UniProt P42336, Q546K): remaining binding read 78%.
It gave 91% for remaining binding (Ribosomal protein S6 kinase alpha-4, N-terminal kinase domain (RPS6KA4, Homo sapiens, UniProt O75676)).
The remaining binding was 100% (Dual specificity protein kinase TTK (TTK, Homo sapiens, UniProt P33981)).
Ephrin type-A receptor 7 (EPHA7, Homo sapiens, UniProt Q15375) — remaining binding: 100%.
It gave 84% for remaining binding (Phosphatidylinositol 4,5-bisphosphate 3-kinase catalytic subunit alpha isoform (PIK3CA, Homo sapiens, UniProt P42336, E542K)).
It gave 96% for remaining binding (Bone morphogenetic protein receptor type-1B (BMPR1B, Homo sapiens, UniProt O00238)).

A few entries again (set 4):
LIM domain kinase 2 (LIMK2, Homo sapiens, UniProt P53671) — remaining binding: 100%.
It gave 96% for remaining binding (Bone morphogenetic protein receptor type-1B (BMPR1B, Homo sapiens, UniProt O00238)).
It gave 84% for remaining binding (Phosphatidylinositol 4,5-bisphosphate 3-kinase catalytic subunit alpha isoform (PIK3CA, Homo sapiens, UniProt P42336, E542K)).
The remaining binding was 90% (Epidermal growth factor receptor (EGFR, Homo sapiens, UniProt P00533, T790M)).
It gave 100% for remaining binding (SRSF protein kinase 1 (SRPK1, Homo sapiens, UniProt Q96SB4)).
